Measured values pooled from the literature.
Compare with care: the assays were run in different laboratories. “And” joins repeats or separate records; there may be more than shown. ± marks the error that the study gave.
HRH2: Histamine H2 receptor (HRH2, Homo sapiens, UniProt P25021)
HTR6: 5-hydroxytryptamine receptor 6 (HTR6, Homo sapiens, UniProt P50406)
CSNK1E: Casein kinase I isoform epsilon (CSNK1E, Homo sapiens, UniProt P49674)
NT5E membrane-bound form: 5'-nucleotidase, membrane-bound form (NT5E, Homo sapiens, UniProt P21589)
SIRT5: NAD-dependent protein deacylase sirtuin-5, mitochondrial (SIRT5, Homo sapiens, UniProt Q9NXA8)
ADORA2A: Adenosine receptor A2a (ADORA2A, Homo sapiens, UniProt P29274)
BAZ2B: Bromodomain adjacent to zinc finger domain protein 2B (BAZ2B, Homo sapiens, UniProt Q9UIF8)
KCNJ2: Inward rectifier potassium channel 2 (KCNJ2, Homo sapiens, UniProt P63252)

Compound	tested on	assay	system	setting	scale	endpoint	result
O=C(Cn1nc(C(F)(F)F)c2c1CCCC2)N1CCCc2ccccc21	Inward rectifier potassium channel (Aedes aegypti, UniProt L0EQ40)	inward K+ current, two-electrode voltage clamp	Xenopus oocytes	25 µM, pH 7.5, holding -140 mV, with: K+ 25 mM	–	inhibition	~12%
O=C(NO)c1ccc(CN2CCCCc3ccccc32)c(F)c1	HRH2	radioligand binding, radioligand displacement	–	10 µM, mean of replicates	–	inhibition	-7.8%
COc1cc2c(cc1OC)C(=O)N(CCCCN1CCN(c3ccccc3OC)CC1)C2	HTR6	radioligand binding	–	concentration not given, with: [3H]LSD	–	inhibition	11.3%
Fc1ccc(-c2ncn(C3=CCCCC3)c2-c2ccncc2)cc1	CSNK1E	inhibitor	–	1 µM	–	inhibition	84%
CCN1CCN(Cc2ccc(NC(=O)c3ccc(C)c(/C=C/c4cnc5[nH]ccc5c4OC)c3)cc2C(F)(F)F)CC1	Cyclin-dependent kinase 11B (CDK11B, Homo sapiens, UniProt P21127)	–	A-375	concentration not given	–	inhibition	-0.432%
COc1ccc(S(=O)(=O)N(CC(=O)NO)CC(C)C)cc1	Stromelysin-2 (Homo sapiens, UniProt P09238)	inhibitor	–	0.1 µM	–	inhibition	16 ± 0.805%
Cc1cc(-c2ccccc2)c(C#N)c(SCC(=O)Nc2nccs2)n1	NT5E membrane-bound form	CD73 activity, inhibitor, malachite green phosphate	MDA-MB-231	100 µM, with: 200 µM AMP	–	inhibition	26 ± 8%
Fc1ccc(-c2c(-c3ccncc3)ncn2-c2ccccc2)cc1	CSNK1E	inhibitor	–	1 µM	–	inhibition	20%
CCOc1cc(-c2nncn2C)ccc1Nc1ncc2cc(C)nc(NCC(C)(C)C)c2n1	MAPK12 (p38 beta)	Z'-LYTE	–	1 µM	–	inhibition	36%
O=C(Nc1cccc2c(=O)cc(-c3nnn[nH]3)oc12)c1ccc(OCCCCc2ccccc2)cc1	Volume-regulated anion channel subunit LRRC8C, part LRRC8A IL1 chimera (LRRC8C, Homo sapiens, UniProt Q8TDW0)	ion current, inhibitor, whole-cell patch clamp	HCT LRRC8-/- cells, transfected	0.1 µM, low ionic strength swelling, -100 mV	–	inhibition	-4.55% and -9.12% and 0.47% and 8.02%
O=C(NC1CCC1)[C@H](Cc1c[nH]c2ccccc12)NC(=O)[C@H](CCCCNC(=S)NCCB(O)O)NS(=O)(=O)c1cccc(F)c1	SIRT5	enzyme activity, inhibitor	–	100 µM	–	inhibition	15%
O=C1NC(=O)C2(N1)c1ccccc1-c1ccccc12	GABA-A receptor alpha-1/beta-3, with gamma-2 subunit (GABRA1/GABRB3, Homo sapiens, UniProt P14867+P28472)	–	–	concentration not given, α1β3γ2 receptor	–	inhibition	35%
Nc1nn(-c2ccccc2)nc1C(=O)O	ADORA2A	–	–	30 µM	–	inhibition	5 ± 4%
Cc1cc(C)c2c(N)c(C(=O)Nc3ccon3)sc2n1	NT5E membrane-bound form	CD73 activity, inhibitor, malachite green phosphate	MDA-MB-231	100 µM, with: 200 µM AMP	–	inhibition	46 ± 4%
CNc1cc(Oc2cc(C(=O)Nc3cc(N4CCN(C)CC4)cc(C(F)(F)F)c3)ccc2C)ncn1	STE20-like serine/threonine-protein kinase (SLK, Homo sapiens, UniProt Q9H2G2)	probe labelling, KiNativ	Huh-7, live cells	1 µM, Lys2 site	–	inhibition	-41.1%
Cc1cc2c(cc1N1C(=O)c3cccc4c(CCCO)ccc(c34)C1=O)n(C)c(=O)n2C (racemic)	BAZ2B	binding, BROMOscan binding	–	1000 nM	–	inhibition	14%
COc1ccc2c(c1)C(=O)N(CCN1CCN(c3ccccc3OC)CC1)C2	HTR6	radioligand binding	–	concentration not given, with: [3H]LSD	–	inhibition	-15.8%
CC[C@@H]1[C@H](F)C(=O)N[C@@H]1COc1nccc2cc(C(N)=O)c(OC)cc12	SNF-related serine/threonine-protein kinase (SNRK, Homo sapiens, UniProt Q9NRH2)	ATP-site probe binding, ActivX profiling	THP-1 cell lysate	0.01 mM, Lys1 site	–	inhibition	0.6%
CC(C)c1noc2ncc(C(=O)c3ccccc3O)cc12	KCNJ2	ion current, whole-cell patch-clamp	–	10 µM, hKir2.1	–	inhibition	2.22%
Cn1cc(-c2cnc3ccc(NC(=O)Nc4ccc(F)c(Br)c4)cc3n2)cn1	Mitogen-activated protein kinase kinase kinase 3 (MAP3K3, Homo sapiens, UniProt Q99759)	kinase binding, KiNativ profiling, refers to: Lys1 peptide	PANC-1 lysate	7.5 µM	–	inhibition	21.1%
COC(=O)c1ccc(NC(=O)c2sc3nc(C)cc(-c4ccccc4)c3c2N)cc1	NT5E membrane-bound form	CD73 activity, inhibitor, malachite green phosphate	MDA-MB-231	100 µM, with: 200 µM AMP	–	inhibition	25 ± 10%
CC(=O)ON=C1C=CC(=C(C#N)c2ccccc2)C=C1	CSNK1E	kinase activity, inhibitor, ADP-Glo	–	20 µM	–	inhibition	40%

Compound	tested on	assay	system	setting	scale	endpoint	result
COCCOCCOCCNC(=O)CSc1nc(C)cc(C)c1C#N	NT5E membrane-bound form	CD73 activity, inhibitor, malachite green phosphate	MDA-MB-231	100 µM, with: 200 µM AMP	–	inhibition	1 ± 8%
O=C1c2ccccc2CCN1CCCCN1CCN(c2ccccn2)CC1	HTR6	radioligand binding	–	concentration not given, with: [3H]LSD	–	inhibition	3.6%
Fc1ccc(-c2ncn(-c3ccccc3)c2-c2ccncc2)cc1	CSNK1E	inhibitor	–	1 µM	–	inhibition	49%
COC(=O)Oc1cc(OC)cc2c1C(=O)O[C@@H](C)C/C=C/C(=O)[C@@H](OC(=O)OC)[C@@H](OC(=O)OC)C[C@H]1O[C@H]21	Mitogen-activated protein kinase kinase kinase 7, with TAB1 (MAP3K7, Homo sapiens, UniProt O43318)	kinase activity, Kinase-Glo luminescence	–	concentration not given	–	inhibition	inactive
Cc1ccc(OC[C@@H]2CN(CCN3CCc4ccccc43)CCO2)cn1	HTR6	radioligand binding	–	concentration not given, with: [3H]LSD	–	inhibition	8.5%
Cc1cccc(C(=O)Nc2nc3ccccc3[nH]2)c1	ADORA2A	–	–	30 µM	–	inhibition	6 ± 3%
Cc1ccc(C(=O)Nc2ccc3ccccc3c2)o1	KCNJ2	ion current, whole-cell patch-clamp	–	10 µM, hKir2.1	–	inhibition	4.76%
CCS(=O)(=O)c1nc(S(=O)(=O)c2ccccc2Cl)c(N2CCN(C)C(=O)[C@H]2C)s1	HRH2	–	–	10 µM	–	inhibition	1.06%
NC/C(=C\F)COc1cccc(Cn2c(=S)[nH]c(=O)c3[nH]cnc32)c1	Amine oxidase copper-containing 3 (Canis lupus familiaris, UniProt A0A8I3MYY3)	inhibitor	dog adipose tissue	0.0014 µM	–	inhibition	31.7%
CCOC(=O)c1ccc(NC(=O)CSc2nc(C)cc(C)c2C#N)cc1	NT5E membrane-bound form	CD73 activity, inhibitor, malachite green phosphate	MDA-MB-231	100 µM, with: 200 µM AMP	–	inhibition	20 ± 4%
CCN1/C(=C/C(C)=O)Sc2ccc(F)cc21	HRH2	–	–	10 µM	–	inhibition	1.39%
COc1cc(C(=O)NS(=O)(=O)c2ccccc2C)ccc1Cc1cn(C)c2ccc(NC(=O)OC3CCCC3)cc12	Volume-regulated anion channel subunit LRRC8C, part LRRC8A IL1 chimera (LRRC8C, Homo sapiens, UniProt Q8TDW0, L105R)	ion current, inhibitor, whole-cell patch clamp	HCT LRRC8-/- cells	1 µM, +100 mV	–	inhibition	0.986% and 7.79% and 5.2% and 4.62% and -0.434% and 8.66%
Cc1cccc(NC(=O)c2sc3nc(-c4ccccc4)cc(C(F)(F)F)c3c2N)n1	NT5E membrane-bound form	CD73 activity, inhibitor, malachite green phosphate	MDA-MB-231	100 µM, with: 200 µM AMP	–	inhibition	20 ± 8%
COc1cc(-c2cc(C(C)=O)n3ccccc23)cc(OC)c1Cn1ccnc1	BAZ2B	binding, inhibitor, AlphaScreen	–	1 µM	–	inhibition	-41.3%
CN(C(=O)n1cnc(-c2ccc[n+]([O-])c2)c1)C1CCCCC1	HTR6	–	–	10 µM	–	inhibition	-20%
COc1cc(CNC(=O)c2sc3nc(C)cc(C)c3c2N)cc(OC)c1OC	NT5E membrane-bound form	CD73 activity, inhibitor, malachite green phosphate	MDA-MB-231	100 µM, with: 200 µM AMP	–	inhibition	-9 ± 14%
O=C(CN1CCO[C@H](COc2ccccc2)C1)N1CCc2ccccc21	HTR6	radioligand binding	–	concentration not given, with: [3H]LSD	–	inhibition	26.7%
Cc1cc(C(F)(F)F)c2c(N)c(C(=O)NCc3ccccc3)sc2n1	NT5E membrane-bound form	CD73 activity, inhibitor, malachite green phosphate	MDA-MB-231	100 µM, with: 200 µM AMP	–	inhibition	22 ± 7%
Cn1cc(-c2ccc(-c3cncc(Cl)c3N3CCC4(CCNC4=O)CC3)cc2)cn1	COLO 205	microarray, refers to: SDC4	–	concentration not given, 2 h, gene set Syndecan-4	baseline: untreated cells	fold change in expression	2.76
Cc1cccc(-c2nc(C(O)C3=CCCCC3)[nH]c2-c2ccncc2)c1 (centres unmarked)	CSNK1E	kinase activity	–	1 µM	–	inhibition	22%
Cc1ccnc(C)c1OC[C@H]1CN(CCN2CCc3ccccc32)CCO1	HTR6	radioligand binding	–	concentration not given, with: [3H]LSD	–	inhibition	3%
O=C(NC1CCC1)[C@H](Cc1c[nH]c2ccccc12)NC(=O)[C@H](CCCCNC(=S)NCCCO)NS(=O)(=O)c1cccc(F)c1	SIRT5	enzyme activity, inhibitor	–	100 µM	–	inhibition	9%

Some of these lines once more:
Compound	tested on	assay	system	setting	scale	endpoint	result
CCS(=O)(=O)c1nc(S(=O)(=O)c2ccccc2Cl)c(N2CCN(C)C(=O)[C@H]2C)s1	HRH2	–	–	10 µM	–	inhibition	1.06%
NC/C(=C\F)COc1cccc(Cn2c(=S)[nH]c(=O)c3[nH]cnc32)c1	Amine oxidase copper-containing 3 (Canis lupus familiaris, UniProt A0A8I3MYY3)	inhibitor	dog adipose tissue	0.0014 µM	–	inhibition	31.7%
CCOC(=O)c1ccc(NC(=O)CSc2nc(C)cc(C)c2C#N)cc1	NT5E membrane-bound form	CD73 activity, inhibitor, malachite green phosphate	MDA-MB-231	100 µM, with: 200 µM AMP	–	inhibition	20 ± 4%
CCN1/C(=C/C(C)=O)Sc2ccc(F)cc21	HRH2	–	–	10 µM	–	inhibition	1.39%
COc1cc(C(=O)NS(=O)(=O)c2ccccc2C)ccc1Cc1cn(C)c2ccc(NC(=O)OC3CCCC3)cc12	Volume-regulated anion channel subunit LRRC8C, part LRRC8A IL1 chimera (LRRC8C, Homo sapiens, UniProt Q8TDW0, L105R)	ion current, inhibitor, whole-cell patch clamp	HCT LRRC8-/- cells	1 µM, +100 mV	–	inhibition	0.986% and 7.79% and 5.2% and 4.62% and -0.434% and 8.66%
Cc1cccc(NC(=O)c2sc3nc(-c4ccccc4)cc(C(F)(F)F)c3c2N)n1	NT5E membrane-bound form	CD73 activity, inhibitor, malachite green phosphate	MDA-MB-231	100 µM, with: 200 µM AMP	–	inhibition	20 ± 8%
